Assay results from different studies.
Technique: steady-state kinetics
B1: GRHPR (Homo sapiens, UniProt Q9UBQ7); chain MRPVRLMKVFVTRRIPAEGRVALARAADCEVEQWDSDEPIPAKELERGVAGAHGLLCLLSDHVDKRILDAAGANLKVISTMSVGIDHLALDEIKKRGIRVGYTPDVLTDTTAELAVSLLLTTCRRLPEAIEEVKNGGWTSWKPLWLCGYGLTQSTVGIIGLGRIGQAIARRLKPFGVQRFLYTGRQPRPEEAAEFQAEFVSTPELAAQSDFIVVACSLTPATEGLCNKDFFQKMKETAVFINISRGDVVNQDDLYQALASGKIAAAGLDVTSPEPLPTNHPLLTLKNCVILPHIGSATHRTRNTMSLLAANNLLAGLRGEPMPSELKL
B2: SCO6712 (Streptomyces coelicolor, UniProt Q9XAL8); chain AKGITARTAPAGGEVRHLKMYAEKLADGQMGYGFEKGKASVPGPLIEVNEGDTLHIEFTNTMDVRASLHVHGLDYEISSDGTAMNKSDVEPGGTRTYTWRTHKPGRRDDGTWRPGSAGYWHYHDHVVGTEHGTGGIRNGLYGPVIVRRKGDVLPDATHTIVFNDMTINNRKPHTGPDFEATVGDRVEIVMITHGEYYHTFHMHGHRWADNRTGILTGPDDPSRVIDNKITGPADSFGFQIIAGEGVGAGAWMYHCHVQSHSDMGMVGLFLVKKPDGTIPGYEPHEHGGATAKSGESGEPTGGAAAHEHEH
B3: enzyme S252E/S281E/S285E/S287E (Schizosaccharomyces pombe, UniProt P78804); chain MSTPYEPEFQQAYKEIVGSIESSKLFEVHPELKRVLPIISIPERVLEFRVTWEDDKGNCRVNTGYRVQFNSALGPYKGGLRFHPSVNLSILKFLGFEQIFKNALTGLPMGGGKGGSDFDPKGKSDNEIRRFSQAFMRQLFRYIGPQTDVPAGDIGVTGFVVMHMFGEYKRLRNEYSGVVTGKHMLTGGSNIRPEATGYGVVYYVKHMIEHRTKGAETLKGKRVAISGSGNVAQYAALKCIQEGAIVKSISDEKGVLIAKTAEGLVPEEIHEIMALKEKRAEIADEAELCKKHHYIAGARPWTNVGEIDIALPCATQNEVSGEEAAALIKQGCRYVAEGSNMGSSAEAVEVFEKSRASGEGCWLAPGKAANAGGVAVSGLEMAQNAQFSTWTHAEVDAKLAGIMQNIFEQSTDVASKYCDSGSNNIPSLVDGANIAGFLKVATAMQAVGDWW
B4: enzyme (Cyanidioschyzon merolae, UniProt M1V8C6); chain EPPRDTAATSSHEFTHHVTEKAKDWSGSGTWLQSYIEQGPLAAAIPPQYAPSRSLSRWQAWGSYLFKELGLDGTLERDQNRIFRFYLPVFAWSLHVVNRLQRDERRKQHGVIIGLQCPQGGGKTTLTAALQKLFDLEQRRCVSLSIDDFYLTRREQEALARAFPENPLLGSRGNPGTHDISLALQVLNEVVAAPYPGEHAEVAVPRYDKSAFQGLGDRAPPEQWPLVSRPVDVVFLEGWCLGFRPLALHERPATMDPITLRHLMQVDRFLAEDFSRLYPLLDAFIVIALDGPKLSESLRIVYQWRLEAEQQMRAAGRPAMTDEQVYAFVDKFMPAYKAYLGDLYGGPPLTGNLSRELRVGIDETRSPTRLNPHSELVP
B5: enzyme (Methylibium petroleiphilum, UniProt A2SL37); chain PIIQMNLLEGRTVEQKRNAVAAITEAVVRTLDVRPDQVRILINELGVEHFSVAGQTAAMRQAAAANAKDL
B6: nfsB (Escherichia coli, UniProt P38489); chain MDIISVALKRHSTKAFDASKKLTPEQAEQIKTLLQYSPSSTNSQPWHFIVASTEEGKARVAKSAAGNYVFNERKMLDASHVVVFCAKTAMDDVWLKLVVDQEDADGRFATPEAKAANDKGRKFFADMHRKDLHDDAEWMAKQVYLNVGNFLLGVAALGLDAVPIEGFDAAILDAEFGLKEKGYTSLVVVPVGHHSVEDFNATLPKSRLPQNITLTEV
B7: enzyme (Arabidopsis thaliana, UniProt O80449); chain MATCWPEPIVSVQSLSQTGVPTVPNRYVKPAHQRPVFNTTQSDAGIEIPVLDMNDVWGKPEGLRLVRSACEEWGFFQMVNHGVTHSLMERVRGAWREFFELPLEEKRKYANSPDTYEGYGSRLGVVKDAKLDWSDYFFLNYLPSSIRNPSKWPSQPPKIRELIEKYGEEVRKLCERLTETLSESLGLKPNKLMQALGGGDKVGASLRTNFYPKCPQPQLTLGLSSHSDPGGITILLPDEKVAGLQVRRGDGWVTIKSVPNALIVNIGDQLQILSNGIYKSVEHQVIVNSGMERVSLAFFYNPRSDIPVGPIEELVTANRPALYKPIRFDEYRSLIRQKGPCGKNQVDSLLLTR
Sequence of UniProt P07004 (whole entry, looked up): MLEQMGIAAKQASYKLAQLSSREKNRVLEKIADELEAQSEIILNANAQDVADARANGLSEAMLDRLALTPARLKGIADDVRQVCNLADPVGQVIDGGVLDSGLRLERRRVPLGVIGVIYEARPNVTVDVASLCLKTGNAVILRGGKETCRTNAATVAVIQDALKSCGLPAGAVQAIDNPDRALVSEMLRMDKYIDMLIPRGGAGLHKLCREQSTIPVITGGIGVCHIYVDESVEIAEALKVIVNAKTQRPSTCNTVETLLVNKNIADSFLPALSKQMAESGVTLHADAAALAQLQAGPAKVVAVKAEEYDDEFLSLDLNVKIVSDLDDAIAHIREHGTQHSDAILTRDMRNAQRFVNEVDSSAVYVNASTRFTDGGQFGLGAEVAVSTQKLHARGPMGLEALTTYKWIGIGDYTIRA
Sequence of UniProt P26208 (whole entry, looked up): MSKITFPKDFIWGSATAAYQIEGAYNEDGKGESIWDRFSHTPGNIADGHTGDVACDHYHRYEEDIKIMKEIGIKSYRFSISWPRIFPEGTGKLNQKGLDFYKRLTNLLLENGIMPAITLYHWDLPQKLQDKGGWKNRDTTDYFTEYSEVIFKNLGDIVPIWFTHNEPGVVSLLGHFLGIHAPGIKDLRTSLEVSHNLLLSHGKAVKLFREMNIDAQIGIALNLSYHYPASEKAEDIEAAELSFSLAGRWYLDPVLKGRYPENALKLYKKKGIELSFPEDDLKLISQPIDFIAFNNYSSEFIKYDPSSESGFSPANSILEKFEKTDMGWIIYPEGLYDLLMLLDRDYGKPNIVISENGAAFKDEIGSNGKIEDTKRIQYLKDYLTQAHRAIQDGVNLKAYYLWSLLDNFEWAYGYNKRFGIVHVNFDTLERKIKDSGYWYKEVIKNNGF
Sequence of UniProt P09546 (whole entry, looked up): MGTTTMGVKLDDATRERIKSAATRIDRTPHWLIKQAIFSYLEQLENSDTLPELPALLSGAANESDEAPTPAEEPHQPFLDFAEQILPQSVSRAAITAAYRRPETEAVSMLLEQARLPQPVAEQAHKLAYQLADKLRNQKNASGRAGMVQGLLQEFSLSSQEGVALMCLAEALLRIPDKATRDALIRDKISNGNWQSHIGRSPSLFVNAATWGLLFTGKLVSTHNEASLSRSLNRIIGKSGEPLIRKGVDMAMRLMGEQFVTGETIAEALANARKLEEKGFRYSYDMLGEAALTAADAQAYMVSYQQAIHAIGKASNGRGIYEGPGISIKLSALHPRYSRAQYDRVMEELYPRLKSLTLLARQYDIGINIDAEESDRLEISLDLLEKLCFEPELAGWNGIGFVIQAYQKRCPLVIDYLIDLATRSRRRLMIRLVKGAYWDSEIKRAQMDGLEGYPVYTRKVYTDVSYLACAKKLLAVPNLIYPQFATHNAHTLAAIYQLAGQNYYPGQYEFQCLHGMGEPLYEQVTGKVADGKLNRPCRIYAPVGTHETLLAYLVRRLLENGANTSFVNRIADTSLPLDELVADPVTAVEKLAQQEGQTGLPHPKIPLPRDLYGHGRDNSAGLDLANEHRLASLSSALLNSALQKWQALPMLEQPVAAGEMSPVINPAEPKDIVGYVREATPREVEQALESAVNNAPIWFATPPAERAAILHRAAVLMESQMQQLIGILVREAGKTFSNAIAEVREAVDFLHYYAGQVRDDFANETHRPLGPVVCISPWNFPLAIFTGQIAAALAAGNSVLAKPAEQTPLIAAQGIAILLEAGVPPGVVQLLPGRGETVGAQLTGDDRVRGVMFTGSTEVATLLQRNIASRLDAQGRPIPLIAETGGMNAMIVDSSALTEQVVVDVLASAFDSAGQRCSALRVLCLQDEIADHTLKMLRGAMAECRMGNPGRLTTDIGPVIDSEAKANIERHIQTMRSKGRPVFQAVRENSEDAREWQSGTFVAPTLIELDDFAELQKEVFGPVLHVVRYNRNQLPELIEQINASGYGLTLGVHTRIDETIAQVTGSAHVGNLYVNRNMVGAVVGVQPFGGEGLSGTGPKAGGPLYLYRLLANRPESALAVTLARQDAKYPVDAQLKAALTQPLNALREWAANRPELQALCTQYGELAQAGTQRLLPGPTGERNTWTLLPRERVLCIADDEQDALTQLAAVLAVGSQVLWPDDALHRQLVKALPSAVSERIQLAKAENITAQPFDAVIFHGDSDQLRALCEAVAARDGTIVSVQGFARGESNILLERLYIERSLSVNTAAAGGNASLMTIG
Sequence of UniProt P0AE52 (whole entry, looked up): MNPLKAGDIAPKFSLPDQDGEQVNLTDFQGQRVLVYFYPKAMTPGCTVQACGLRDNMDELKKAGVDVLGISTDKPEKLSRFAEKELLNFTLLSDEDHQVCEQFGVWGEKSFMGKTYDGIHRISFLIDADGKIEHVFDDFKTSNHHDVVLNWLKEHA
Sequence of UniProt A0A348FUE1 (whole entry, looked up): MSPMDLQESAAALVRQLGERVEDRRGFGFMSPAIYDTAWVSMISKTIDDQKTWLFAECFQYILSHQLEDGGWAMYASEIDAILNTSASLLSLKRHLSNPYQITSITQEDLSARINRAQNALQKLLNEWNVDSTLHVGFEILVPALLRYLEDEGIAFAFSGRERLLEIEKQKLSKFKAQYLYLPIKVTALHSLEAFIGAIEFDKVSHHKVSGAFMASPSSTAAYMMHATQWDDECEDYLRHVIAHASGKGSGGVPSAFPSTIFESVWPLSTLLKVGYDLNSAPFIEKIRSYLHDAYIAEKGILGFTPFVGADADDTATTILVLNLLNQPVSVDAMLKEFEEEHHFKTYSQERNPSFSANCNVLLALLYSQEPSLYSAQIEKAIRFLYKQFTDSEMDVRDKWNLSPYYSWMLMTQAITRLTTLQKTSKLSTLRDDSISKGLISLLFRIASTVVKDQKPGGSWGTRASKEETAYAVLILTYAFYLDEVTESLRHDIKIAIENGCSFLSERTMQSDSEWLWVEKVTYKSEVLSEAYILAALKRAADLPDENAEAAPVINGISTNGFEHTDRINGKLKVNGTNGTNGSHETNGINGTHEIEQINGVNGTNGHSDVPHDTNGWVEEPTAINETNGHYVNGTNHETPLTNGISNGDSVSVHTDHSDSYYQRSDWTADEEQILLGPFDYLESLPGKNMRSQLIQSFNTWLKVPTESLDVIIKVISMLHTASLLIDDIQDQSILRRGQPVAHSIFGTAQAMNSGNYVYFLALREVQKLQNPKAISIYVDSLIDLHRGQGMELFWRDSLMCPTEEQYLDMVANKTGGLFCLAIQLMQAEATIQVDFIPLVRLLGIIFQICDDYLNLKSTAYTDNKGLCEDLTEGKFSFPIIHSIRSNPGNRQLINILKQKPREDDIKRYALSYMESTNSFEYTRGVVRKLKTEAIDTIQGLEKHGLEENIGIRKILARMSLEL

| Substance | substrate | pH | temperature | notes | with | Km [µM] |
| --- | --- | --- | --- | --- | --- | --- |
| enzyme (Talaromyces verruculosus, UniProt A0A348FUE1) | CC(C)=CCOP(=O)(O)OP(=O)(O)O | pH 7.5 | – | apparent | 150 µM IPP | 190 |
| acsA I222V/L233M (Pseudomonas chlororaphis) | O=C(O)CCC(F)(F)F | pH 7 | – | – | – | 900 |
| enzyme (Nicotiana tabacum, UniProt A0A1S4B614) | O=C(O)[C@]1(O)C[C@@H](O)[C@@H](O)[C@H](O)C1 | pH 7.5 | 37 °C | – | – | 350 |
| CYP2J2 L2A (Homo sapiens) | CC/C=C\C/C=C\C/C=C\C/C=C\C/C=C\C/C=C\CCC(=O)O | – | – | – | – | 542 |
| bcp (Escherichia coli, UniProt P0AE52) | CC(C)(OO)c1ccccc1 | pH 7 | 25 °C | apparent | – | 99.5 |
| putA (Escherichia coli, UniProt P09546) | CC1=C(C)C(=O)C(C)=C(C)C1=O | pH 7.4 | 20 °C | – | proline 200 mM | 147 |
| B1 (GRHPR) | O=CC(=O)O | pH 7.5 | 37 °C | apparent | NADPH 200 µM | 253 |
| B2 (SCO6712) | CCn1c(=NN=c2sc3cc(S(=O)(=O)O)ccc3n2CC)sc2cc(S(=O)(=O)O)ccc21 | pH 7 | 37 °C | NaCl 150 mM | O2 cosubstrate | 4400 |
| B3 (enzyme S252E/S281E/S285E/S287E) | NC(=O)C1=CN([C@@H]2O[C@H](COP(=O)(O)OP(=O)(O)OC[C@H]3O[C@@H](n4cnc5c(N)ncnc54)[C@H](O)[C@@H]3O)[C@@H](O)[C@H]2O)C=CC1 | pH 7 | 30 °C | apparent | – | 12000 |
| B4 (enzyme) | O=C(O)[C@H](O)CO | pH 7.8 | 30 °C | – | – | 98 |
| enzyme (Oryctolagus cuniculus, UniProt G1T386) | Nc1nc2nc[nH]c2c(=O)[nH]1 | pH 7.4 | 25 °C | – | – | 5.5 |
| B5 (enzyme) | C/C(=C\C=C(/O)C(=O)O)C(=O)O | pH 7.3 | 24 °C | – | – | 211 |
| B6 (nfsB) | NC(=O)N/N=C/c1ccc([N+](=O)[O-])o1 | pH 7 | 37 °C | – | NADPH 110 µM | 29 |
| bglA (Acetivibrio thermocellus, UniProt P26208) | O=[N+]([O-])c1ccc(O[C@@H]2O[C@H](CO)[C@@H](O)[C@H](O)[C@H]2O)cc1 | pH 5.5 | 60 °C | – | – | 5980 |
| B7 (enzyme) | CC/C=C\C[C@@H]1C(=O)CC[C@@H]1CC(=O)O | pH 7.5 | 20 °C | – | – | 11.3 |
| enzyme (Pseudanabaena biceps, UniProt L8N0N6) | NC(=O)c1ccc[n+]([C@@H]2O[C@H](COP(=O)(O)O)[C@@H](O)[C@H]2O)c1 | pH 7.4 | 30 °C | apparent, cofactor varied | – | 10200 |
| proA (Escherichia coli, UniProt P07004) | N[C@@H](CCC=O)C(=O)O | pH 7.6 | – | apparent | 1 mM NADP+ | 290 |
| enzyme (UniProt F0RRL2) | O=P(O)(O)O | pH 5.5 | 37 °C | apparent | – | 2200 |
| enzyme (UniProt A0A7S7NT01) | CC(=O)N[C@H]1[C@H](Oc2ccc([N+](=O)[O-])cc2)O[C@H](CO)[C@@H](O[C@@H]2O[C@H](CO)[C@H](O)[C@H](O)[C@H]2O)[C@@H]1O | pH 6 | 45 °C | – | – | 1410 |
